Measured values pooled from the literature.
Lines come from different studies, so protocols differ. Several values in a cell are separate wells, animals, samples, runs or records. Numbers after ± are the reported error.

`CCn1cc(-c2cc(Cn3ccnc3)cc3c2CCN([C@H](c2cc(OC)ccn2)C2CC2)C3=O)c(C(F)(F)F)n1` gave an EC50 of 29.5 µM (COV362; cell growth, inhibitor; 120 h).
`Cn1cc(Nc2nccc(-c3ccc4c(c3)CN(C3COC3)CC[C@H]4NC(=O)c3cn(C(C)(C)C)nn3)n2)cn1` — result for “pathway activation z-score”: 1.09 (mouse splenic B cells; measured: 3-phosphoinositide biosynthesis; 30 mg/kg, IgD-activated in vivo; reference: vehicle, direction not given).
For `Cc1nn(-c2nc3c(F)cc(F)cc3s2)c(O)c1C(c1ccc(C(F)(F)F)cc1)c1c(C)nn(-c2nc3c(F)cc(F)cc3s2)c1O`, the phospho-IRF3/IRF3 ratio was 0.705 and 0.698 and 0.577 (RAW-ISG; western blot; 10 µM, added: HT-DNA; reference: vehicle).
For `COc1ccc(NC(=O)c2c(Nc3ccccc3)sc(C(=O)NN=Cc3ccc(OC)c(O)c3)c2NC(C)=O)cc1`, “early apoptotic cells” read 4.19 ± 0.21% (HepG2; annexin V-FITC/PI; concentration not given).
For `C=CCn1c(=O)c2cnc(Nc3ccc(N4CCN(C)CC4)cc3)nc2n1-c1ccc2c(n1)[C@@](O)(CC)CC2`, “G2/M cells in subpopulation” read 58.8% (NCI-H1048; flow cytometry, measured: pHH3-γH2Ax-; concentration not given).
`CCCCc1nc(Cl)c(CO)n1Cc1ccc(-c2ccccc2-c2nn[nH]n2)cc1` — result for “log2 fold change”: 1.51 (human PBMC; RNA-seq, measured: CEMIP mRNA; 10 µg/mL, 24 h; reference: untreated control).
`Cc1cccc(-c2[nH]c(CNc3ccccc3F)nc2-c2ccc3ncnn3c2)n1` gave a relative viability of 0.05 (bone marrow CD138+ myeloma cells; XTT; human; 3 µM; reference: untreated).
`CC1(C)COc2ccc(F)cc2CN2c3nc4c(cnn4cc3OC[C@H]2C(F)F)C(=O)N1` has an Emax of 98.8% (Ba/F3 EML4-ALK variant 1 S1206Y; cell viability).
`C#C[C@@]1(O)[C@@H](CO)O[C@@H](n2cc(F)c3c(N)ncnc32)[C@@H]1O` gave an LC50 of -4.2 log M (NCI60 panel; cell viability; mean over panel).
`COC(=O)Nc1nc2ccc(C(=O)c3cccs3)cc2[nH]1` has a G1 cells of 2.7% (tsFT210 G2-synchronised; flow cytometry; 100 nM, 4 h after release at 32 °C).
The viability of `FC(F)(F)COCC(F)(F)F` is reported as 111% (MCF-10A; CellTiter-Glo; concentration not given; reference: normalised luminescence).
`CN1C(=O)C2(NN=C(c3ccccc3)S2)c2ccccc21` (stereo not shown) gave a viability loss of ~40% (SK-N-BE(2) and SK-N-SH neuroblastoma; MTT; 10 µM, 24 h).
For `Cn1cc(-c2ccc(-c3cncc(Cl)c3N3CCC4(CCNC4=O)CC3)cc2)cn1`, “log2 fold change” read 2.56 (COLO 205; gene expression, microarray, measured: RSAD2 mRNA; concentration not given, 2 h; reference: untreated cells).
`[Cl-].[Cl-].[Os+2].c1cnc2c(c1)ccc1cccnc12.c1cnc2c(c1)ccc1cccnc12.c1cnc2c(c1)ccc1cccnc12` has a phototherapeutic index of 4 (SK-MEL-28; resazurin; normoxia, added: visible light; reference: dark EC50 over light EC50).
`CCCN1CCN(c2ccc3[nH]c(-c4ccc5[nH]c(-c6cc(OC)c(OC)c(OC)c6)nc5c4)nc3c2)CC1` has a growth percent of 7.58% (Malme-3M; SRB; 10 µM, 48 h).
The IC50 of `Cc1c(C(=O)O)ccc2c3n(nc12)[C@@H]1[C@H](C3)N(CC2CC2)[C@@]2(C(=O)Nc3cc(Cl)ccc32)[C@H]1c1cccc(Cl)c1F` is reported as 0.024 µM (JAR (MDM2-amplified); cell proliferation, alamarBlue; 120 h).
Under “G2 phase cells”, `CC(C)(c1ccc(O)cc1)c1ccc(O)cc1` is recorded as 20.7 ± 4.07% (HepG2 spheroids; Hoechst flow cytometry; 1 µM, 24 h).
`O=c1[nH]nc(OCCCc2ccc(Cl)cc2)c(NCc2cccnc2)c1Br`: “normalized enrichment score” -1.42 (HEK-293T; RNA-seq GSEA, measured: HALLMARK_E2F_TARGETS; concentration not given; direction not given).
`Cc1cc(Nc2ncc(Cl)c(Nc3ccccc3S(=O)(=O)C(C)C)n2)c(OC(C)C)cc1C1CCNCC1`: “log2 fold change” 0.0119 (CLB-GE; LC-MS/MS phosphoproteomics, measured: A2M phosphorylation; 200 nM, 60 min; reference: untreated).
For `C=CC1=C(C)c2cc3[n-]c(cc4nc(cc5[n-]c(cc1n2)c(C)c5C=C)C(C)=C4CCC(=O)O)c(CCC(=O)O)c3C.[Zn+2]`, the fold change was 1.95 (SH-SY5Y; RNA-seq, measured: AOPEP mRNA; 5 µM, 5 h; reference: untreated cells).
`O=C(/C=C/C=C/C=C/C1CCCCC1)NC1=C[C@@](O)(/C=C/C=C/C=C/C(=O)NC2=C(O)CCC2=O)[C@@H]2O[C@@H]2C1=O` gave a GI50 of 24.4 µM (NCI-H1792; cell growth, CellTiter-Glo; 78 h).
For `N#Cc1ccc(C[C@@H](Nc2c(Nc3ccc(F)cc3)c(=O)c2=O)C(=O)N2CCc3ccccc32)cc1`, the IC50 was > 50 µM (human neutrophils; calcium mobilization, desensitization; added: standard agonist).
`Cc1ccc(NC(=O)[C@H]2CCCN(C(=O)c3c(C)cccc3F)[C@H]2c2ccc(NC3CCCC3)cc2)cc1C(F)(F)F` gave a neutrophil swelling of 1.24 fold change and 1.47 fold change and 1.4 fold change and 1.2 fold change (human peripheral blood neutrophils; flow cytometry FSC/SSC; 0.1 µM, added: C5a 100 ng/mL, MPO-ANCA immune complex; reference: unstimulated neutrophils).
`Cc1cc(C)nc(SCC(=O)Nc2ncc(Cc3cccc(OCc4cn(Cc5ccc(OCCN6CCOCC6)cc5)nn4)c3)s2)n1` has an inhibition of 8.7 ± 7.8% (PC-3M-luc; colony formation, colony forming; 10 µM).
The cell growth of `Cc1cc(=O)[nH]n1-c1nc(-c2ccc(Cl)cc2)c2c(NC(=O)c3ccccc3)nnc-2[nH]1` is reported as 90.1% (Malme-3M; SRB; 10 µM, NCI60 single-dose screen; reference: untreated).
For `C[C@H]1Oc2cc(cnc2N)-c2c(nn(C)c2C#N)CN(C)C(=O)c2ccc(F)cc21`, the Hill slope was 1.84 (Ba/F3 EML4-ALK v1; cell viability).
The EC50 of `CCn1cc(-c2cc(Cn3ccoc3=N)cc3c2CCN([C@@H](C)c2cc(OC)ccn2)C3=O)c(C(F)(F)F)n1` is reported as 0.541 µM (SK-HEP1; cell growth, inhibitor; 120 h).
Under “Ca2+ release and influx”, `O=C(O)c1cc(N2N=C(C(F)(F)F)/C(=C/c3ccc(-c4ccccc4)o3)C2=O)ccc1Cl` is recorded as “decreased” (platelets; concentration not given, added: A23187).
Under “relative cell number”, `Cl.Cl.NCCNS(=O)(=O)c1ccc(Cl)c2ccncc12` is recorded as 119% (SK-OV-3; ATP; 2D monolayer culture; 10 µM, 4 days; reference: untreated).
`O=C(O)c1ccc2c3c1cccc3c(=O)n1c3ccccc3nc21`: “Ucp1, PGC1α, AMPKα phosphorylation” “decreased” (C3H10T1/2-derived adipocytes overexpressing Dlat-Flag; 10 µM, 24 h; reference: Dlat overexpression without compound).
With `Nc1ncnc2[nH]cnc12` the viability was 150% (MCF-10A; CellTiter-Glo; concentration not given; reference: normalised, mean of replicates).
With `C=Cc1c2[n-]c(c1C)/C=c1\[n-]/c(c(C)c1C=C)=C\c1[n-]c(c(CCC(=O)O)c1C)/C=c1\[n-]c(c(C)c1CCC(=O)O)=C2.[Sn+4]` the fold change was 5.68 (SH-SY5Y; RNA-seq, measured: EDN1 mRNA; 5 µM, 5 h; reference: untreated cells).
`Nc1ncnc2c1ncn2[C@@H]1O[C@H](CO)[C@@H](O)[C@H]1O` gave an IFNγ production of 485 a.u. and 365 a.u. and 353 a.u. (activated human T cells; 316 nM; higher = more IFNγ).
`CC(C)(C)c1cc(O)ccc1O` — result for “point of departure”: 16.2 µM (HepG2; extracellular flux, measured: oxygen consumption rate; 1 h, distribution mode 2).
With `CSc1nc(-c2ccc(Cl)cc2)c2c(NC(=O)c3ccccc3)nnc-2[nH]1` the cell growth was 92.7% (Malme-3M; SRB; 10 µM, NCI60 single-dose screen; reference: untreated).
The selectivity index of `CCCCCCCCCC(=O)Oc1c(C)c(O)c(C(=O)/C=C/c2ccccc2)c(OC)c1C` is reported as 1.21 (FaDu; SRB; reference: normal over FaDu IC50).
`COc1cnc2cccc(N3CCc4c(cc(Cn5ccnc5C)cc4-c4cn(C)nc4C(F)(F)F)C3=O)c2c1` gave an EC50 of 15.7 µM (COV362; cell growth, inhibitor; 120 h).
`C[C@]12CCCN1CC1=NNC(=O)c3cc(F)cc4[nH]c2c1c34` has an EC50 of > 10 µM (MGC-803 gastric cancer cells; cell viability; concentration not given, added: with temozolomide).
`O=S(=O)(O)O` has a Km of ~14 mM (human neutrophils; anion exchange, substrate, trans-stimulated sulfate efflux; external binding site).
`CC1(C)CCC(CN2CCN(c3ccc(C(=O)NS(=O)(=O)c4ccc(NCC5CCOCC5)c([N+](=O)[O-])c4)c(Oc4cnc5[nH]ccc5c4)c3)CC2)=C(c2ccc(Cl)cc2)C1`: “late apoptotic cells” 1.8% (THP-1; annexin V/PI flow cytometry, measured: annexin V+/PI+; 1.6 µM, 24 h).
`Nc1cccc2c1C(=O)N(C1CCC(=O)NC1=O)C2=O` (stereo not shown) gave a viability of 40% (bone marrow CD138+ myeloma cells; XTT; 1.4 µM, phenol red-free RPMI).
`COc1ccc(NC(=S)N/N=C/c2cccc3cc4ccccc4nc23)cc1`: “G1 phase cells” 55 ± 0.9% (HeLa; PI flow cytometry; IC25, 48 h, added: N-acetylcysteine).
`Cn1cc(-n2cnc3c(NCc4nc5cc(Cl)c(Cl)cc5[nH]4)nc(N4CCOCC4)nc32)cn1` has a luminescence signal of 65700 a.u. and 57800 a.u. (MDA-MB-468; cell viability, CellCounting-Lite; 74.07 nM, 37 °C; higher = more viable cells).
For `CCCCc1oc2ccccc2c1C(=O)c1cc(I)c(OCCN(CC)CC)c(I)c1`, “down-regulated genes number” read 323 (human embryonic stem cell aggregates; microarray; 4 µM, 120 h, fold change above 1.5).
For `CCC(=O)N1CCC(COCC(=O)N2CCN(c3nc(-c4cnc(N)nc4C(F)F)nc(N4CCOC[C@@H]4C)n3)CC2)CC1`, the GR50 was 53.4 nM (MDA-MB-453; resazurin growth rate inhibition; 72 h).
`CN1CCN(c2ccc3[nH]c(-c4ccc5[nH]c(-c6ccc(C(F)(F)F)cc6)nc5c4)nc3c2)CC1` gave a growth percent of 29.6% (SNB-75; SRB; 10 µM, 48 h).

A few entries again:
With `C=Cc1c2[n-]c(c1C)/C=c1\[n-]/c(c(C)c1C=C)=C\c1[n-]c(c(CCC(=O)O)c1C)/C=c1\[n-]c(c(C)c1CCC(=O)O)=C2.[Sn+4]` the fold change was 5.68 (SH-SY5Y; RNA-seq, measured: EDN1 mRNA; 5 µM, 5 h; reference: untreated cells).
`Nc1ncnc2c1ncn2[C@@H]1O[C@H](CO)[C@@H](O)[C@H]1O` gave an IFNγ production of 485 a.u. and 365 a.u. and 353 a.u. (activated human T cells; 316 nM; higher = more IFNγ).
`CC(C)(C)c1cc(O)ccc1O` — result for “point of departure”: 16.2 µM (HepG2; extracellular flux, measured: oxygen consumption rate; 1 h, distribution mode 2).
With `CSc1nc(-c2ccc(Cl)cc2)c2c(NC(=O)c3ccccc3)nnc-2[nH]1` the cell growth was 92.7% (Malme-3M; SRB; 10 µM, NCI60 single-dose screen; reference: untreated).
The selectivity index of `CCCCCCCCCC(=O)Oc1c(C)c(O)c(C(=O)/C=C/c2ccccc2)c(OC)c1C` is reported as 1.21 (FaDu; SRB; reference: normal over FaDu IC50).
